Measurements pooled from the literature.
A part holds a random share of what one study measured.

Series 1
Target: Prothrombin, mature alpha-thrombin (F2, Homo sapiens, UniProt P00734)
Method: aptamer microarray, sandwich
Form: DNA with 2'F-ANA
Medium: in vitro
Concentration: 200 nM
Setting: whole 15-mer aptamer, many near background
With: Cy3 exosite-II aptamer, 400 nM
Direction: higher = stronger binding
Endpoint: mean fluorescence intensity
Oligonucleotide: GGTTGGTGTGGTTGG
2'F-ANA at 1 2 3 4 5 6 7 8 12 13 14: 58 a.u.
2'F-ANA at 6 8 11 12 13 15: 598 a.u.
2'F-ANA at 1 2 4 6 8 9 11 14 15: 163 a.u.
2'F-ANA at 2 4 7 9 11 12 13: 344 a.u.
2'F-ANA at 4 8 9 11 14: 81.2 a.u.

Series 2
Target: Sal-like protein 4, full length isoform A (SALL4, Homo sapiens, UniProt Q9UJQ4, residues 1-1053)
UniProt Q9UJQ4, sequence (whole entry, looked up): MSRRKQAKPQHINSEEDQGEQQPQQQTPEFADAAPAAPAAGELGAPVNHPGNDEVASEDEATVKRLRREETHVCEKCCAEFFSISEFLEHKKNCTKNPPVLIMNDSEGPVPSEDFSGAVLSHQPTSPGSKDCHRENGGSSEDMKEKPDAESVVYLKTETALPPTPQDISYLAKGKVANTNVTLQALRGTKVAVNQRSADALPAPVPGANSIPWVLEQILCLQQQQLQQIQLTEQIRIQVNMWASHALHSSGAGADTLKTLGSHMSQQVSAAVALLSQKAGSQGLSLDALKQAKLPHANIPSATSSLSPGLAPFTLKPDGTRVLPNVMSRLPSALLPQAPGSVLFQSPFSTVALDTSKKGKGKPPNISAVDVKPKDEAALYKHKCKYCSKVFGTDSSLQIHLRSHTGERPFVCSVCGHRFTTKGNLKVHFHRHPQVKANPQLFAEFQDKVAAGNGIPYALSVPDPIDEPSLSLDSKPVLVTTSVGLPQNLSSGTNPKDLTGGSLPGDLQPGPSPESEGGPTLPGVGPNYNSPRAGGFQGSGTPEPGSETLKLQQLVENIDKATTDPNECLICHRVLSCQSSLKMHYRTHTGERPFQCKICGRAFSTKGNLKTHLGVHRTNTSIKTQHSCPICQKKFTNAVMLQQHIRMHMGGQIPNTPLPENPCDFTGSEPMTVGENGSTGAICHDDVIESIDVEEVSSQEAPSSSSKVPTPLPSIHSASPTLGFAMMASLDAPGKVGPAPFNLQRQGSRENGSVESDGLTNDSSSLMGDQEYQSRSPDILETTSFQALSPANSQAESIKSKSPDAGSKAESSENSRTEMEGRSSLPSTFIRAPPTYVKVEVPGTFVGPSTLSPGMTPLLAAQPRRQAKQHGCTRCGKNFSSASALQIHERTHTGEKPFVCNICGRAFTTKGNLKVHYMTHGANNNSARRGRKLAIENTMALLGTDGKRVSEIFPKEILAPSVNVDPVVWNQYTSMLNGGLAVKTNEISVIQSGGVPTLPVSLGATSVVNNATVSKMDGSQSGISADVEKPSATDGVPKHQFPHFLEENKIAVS
Method: universal PBM
Form: double-stranded DNA, one strand shown
Medium: in vitro
Concentration: 600 nM
Setting: 8-mer, flanks averaged, mean of replicates
Direction: higher = stronger binding
Endpoint: E-score
AGTGCCTG: -0.056
CCGTTTGA: -0.155
CATCGTGA: -0.149
GGCGCAAC: -0.218

Series 3
Target: Histone acetyltransferase KAT6A, both winged helices, GST fusion (KAT6A, Homo sapiens, UniProt Q92794, residues 1-181)
Method: protein binding microarray
Form: double-stranded DNA, one strand shown
Medium: in vitro
Concentration: not given
Setting: 8-mer, flanks averaged, mean of 2 arrays, mostly near background
Baseline: not given
Direction: higher = stronger binding
Endpoint: E-score
Target sequence (chain): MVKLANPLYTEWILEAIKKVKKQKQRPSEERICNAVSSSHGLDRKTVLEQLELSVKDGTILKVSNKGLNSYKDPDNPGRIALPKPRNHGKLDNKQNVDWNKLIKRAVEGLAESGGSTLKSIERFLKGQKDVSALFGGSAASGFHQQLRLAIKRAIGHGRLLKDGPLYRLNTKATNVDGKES
CACTGGGG: -0.133
CGATGGAC: 0.135
CAGGGACG: 0.025

Single results of other studies
PhoQ, residues 284 288 289 292 302 303 NLMGRA  fold induction (PhoP, residues 12 14 15 18 19 LYHSL (Escherichia coli, UniProt P23836); Sort-seq, measured: YFP reporter; E. coli; PhoQ-PhoP variant library, with: 10 µM Mg2+; baseline: high Mg2+ state, higher = stronger signaling): 0.406

A few entries again (single results of other studies):
PhoQ, residues 284 288 289 292 302 303 NLMGRA  fold induction (PhoP, residues 12 14 15 18 19 LYHSL (Escherichia coli, UniProt P23836); Sort-seq, measured: YFP reporter; E. coli; PhoQ-PhoP variant library, with: 10 µM Mg2+; baseline: high Mg2+ state, higher = stronger signaling): 0.406
